# Results pooled from the literature.
# Each numbered part is a random draw from the data of one study; scales do not carry over between parts. Positions count from the first letter of the parent shown.

# Set 1
# Target: Max dimerization protein 1, bHLH-zipper, MAX partner unstated (MXD1, Homo sapiens, UniProt Q05195, residues 56-136)
# Method: protein-binding microarray
# Form: double-stranded DNA, one strand shown
# Medium: in vitro
# Tested at: not given
# Notes: k-mer, scored over probes, only values ≥0.25
# Direction: higher = stronger binding
# Construct (chain): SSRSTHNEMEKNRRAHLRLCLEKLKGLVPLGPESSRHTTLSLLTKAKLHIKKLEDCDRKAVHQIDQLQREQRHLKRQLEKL
Strand,E-score
AAACACAC,0.276
CGTGCGCA,0.354
ATCACGTG,0.48
GCAGAACA,0.298
ACAGCGTG,0.36

# Set 2
# Target: CCNE1, cyclin fold, Cln2 fusion (human)
# Method: yeast growth competition, sequencing
# Medium: yeast
# Notes: strong parent motif
# Reference: not given
# Direction: higher = stronger binding
# Starting sequence: CDC25A docking peptide (human); PPHRRRLLFACSP
Variant,normalised enrichment score
PPHRRRLYFACSP [L8Y],2.08
PPFRRRLLFACSP [H3F],2.2
PPHRRRLLFAVSP [C11V],1.74
PPMRRRLLFACSP [H3M],0.712

# Set 3
# Target: TAR DNA-binding protein 43, full length, His tag (TARDBP, Homo sapiens, UniProt Q13148, residues 1-414)
# Method: RNA Bind-n-Seq
# Form: RNA
# Medium: in vitro
# Tested at: 20 nM
# Notes: 6-mer, flanks averaged, single round
# Together with: 150 mM LiCl
# Reference: input library
# Direction: higher = stronger binding
Strand,6-mer enrichment (R)
CGUCCU,0.9
AGCUAU,0.88
AGACCG,0.844
GAUCUU,0.876
GGCUUA,0.924
UACCCA,0.933
UAGUGA,1.01
GAAUUG,0.992
GCGUCU,0.942

# Single results of other studies
Molecule,target,assay,test system,conditions,scale,measurement,result
"PhoQ, residues 284 288 289 292 302 303 SSCLAV","PhoP, residues 12 14 15 18 19 SEGLL (Escherichia coli, UniProt P23836)","Sort-seq, refers to: YFP reporter",E. coli,"PhoQ-PhoP variant library, together with: 10 µM Mg2+","reference: high Mg2+ state, higher = stronger signaling",fold induction,15

# Some of these lines once more (set 1):
Strand,E-score
ATCACGTG,0.48
GCAGAACA,0.298
ACAGCGTG,0.36
